Measurements gathered from unrelated publications.
Each line is one published result; not all experiments were run side by side. Several values in a cell are separate wells, animals, samples, runs or records.
Target: Casein kinase II subunit alpha (CSNK2A1, Homo sapiens, UniProt P68400)

For `COc1cc(Nc2nccc(-c3cnn4nc(OC)ccc34)n2)cc(C(F)(F)F)c1`, the remaining binding was 85% (binding, competition with immobilised ligand; 1 µM).
With `COc1c(Cl)cccc1Nc1c(-c2ccncc2C#C[C@@]2(C)CCCN2C(=O)/C=C/CN(C)C)[nH]c2c1C(=O)NCC2` the remaining binding was 75% (cell-free assay, competition with immobilised ligand; 3 µM).
For `Nc1nc(Nc2ccccc2)sc1C(=O)c1ccccc1`, the remaining activity was 107% (enzyme activity, inhibitor; 10 µM).
`CN1CC[C@@H](COc2cnc(C#N)cc2-c2ccn3nc(NC(=O)C4CC4)cc3c2)C1` gave an inhibition of 25% (kinase activity; 1 µM, ATP15).
For `O=C=[N][Ru-4]123([n]4c5ccc(O)cc5c5c6c(c7cc(F)c[n+]1c7c54)C(=O)NC6=O)[S+]1CC[S+]2CC[S+]3CC1` (stereo not shown), the remaining activity was 113% (enzyme activity; 100 nM, human enzyme, with: 10 µM ATP; baseline: untreated).
With `CNC(=O)C1CCN(c2cc(C)c(F)cc2NC(=O)c2ccc(-c3cc(O)ccc3C)c(C)c2)CC1` the remaining binding was 95% (binding, competition with immobilised ligand; 1 µM).
The remaining binding of `Cc1cnc2nc1Nc1cccc(c1)COC/C=C/COCc1cc(ccc1OCCN1CCOCC1)N2` is reported as 30% (binding; 0.1 µM).
`NC(=O)C[C@H]1CCc2sc3ncnc(O[C@H]4CC[C@H](N5CCOCC5)CC4)c3c21` gave an inhibition of 6% (enzyme activity, inhibitor; 10 µM).
`O=c1c(-c2ccc(Cl)c(CN3CCOCC3)c2)coc2cc(O)ccc12` gave a remaining activity of 112% (enzyme activity, inhibitor; 1 µM).
`Nc1ncc2c(n1)-c1c([nH]c3ccc(C4=CCOCC4)cc13)CCC2` has a remaining binding of 71% (binding, competition with immobilised ligand; 1 µM).
The remaining activity of `Cc1cccc(-c2ccc3nc(NC(=O)C4CCCO4)nn3c2)c1` (stereo not shown) is reported as 101% (enzyme activity, Dundee kinase panel; 10 µM).
The remaining binding of `C=CC(=O)N1CCCC(n2c(=O)c3ncccc3n(Cc3ccc(Oc4ccccc4)cc3)c2=O)C1` (stereo not shown) is reported as 65% (cell-free assay, competition with immobilised ligand; 1 µM).
The remaining activity of `Cc1cccc(-c2ccc3nc(NC(=O)C4CCCCC4)nn3c2)c1` is reported as 106% (enzyme activity, Dundee kinase panel; 10 µM).
With `c1ccc2c(Nc3cc(C4CCC4)[nH]n3)nc(Nc3ccc4nc[nH]c4c3)nc2c1` the remaining activity was 91% (enzyme activity, inhibitor; 0.25 µM).
For `COCC12C(=O)NC3C4(C(OC)CC1O)C1CC5(O)C(OC)C(O)C(OC(C)=O)(C1C5OC(=O)c1ccccc1)C3(O)C(OC)C24` (stereo not shown), the remaining activity was 104% and 100% (kinase activity, inhibitor, ProQinase kinase profiling; 25 µM; baseline: control).
With `CCn1cc(C(=O)O)c(=O)c2c(N)c(F)c(NC3CCCCC3)cc21` the inhibition was -10.6% (kinase activity; 0.1 µM, with: ATP at Km).

A few entries again:
For `COc1cc(Nc2nccc(-c3cnn4nc(OC)ccc34)n2)cc(C(F)(F)F)c1`, the remaining binding was 85% (binding, competition with immobilised ligand; 1 µM).
`NC(=O)C[C@H]1CCc2sc3ncnc(O[C@H]4CC[C@H](N5CCOCC5)CC4)c3c21` gave an inhibition of 6% (enzyme activity, inhibitor; 10 µM).
With `COc1c(Cl)cccc1Nc1c(-c2ccncc2C#C[C@@]2(C)CCCN2C(=O)/C=C/CN(C)C)[nH]c2c1C(=O)NCC2` the remaining binding was 75% (cell-free assay, competition with immobilised ligand; 3 µM).
